Results of several laboratories.
Each numbered part is a random draw from the data of one study; scales do not carry over between parts.

Study 1 — technique: competition protein-binding microarray; molecule type: double-stranded DNA, one strand shown; medium: in vitro; tested at: 2 µM; added: Pho4 competitor, 0.05 µM; direction: higher = stronger binding; constant ends, left off below: … GTCTTGATTCGCTTGACGCTGCTG
Target: Centromere-binding protein 1, full length, His-tagged (CBF1, Saccharomyces cerevisiae, UniProt P17106, residues 1-351)
UniProt P17106, sequence (whole entry, looked up): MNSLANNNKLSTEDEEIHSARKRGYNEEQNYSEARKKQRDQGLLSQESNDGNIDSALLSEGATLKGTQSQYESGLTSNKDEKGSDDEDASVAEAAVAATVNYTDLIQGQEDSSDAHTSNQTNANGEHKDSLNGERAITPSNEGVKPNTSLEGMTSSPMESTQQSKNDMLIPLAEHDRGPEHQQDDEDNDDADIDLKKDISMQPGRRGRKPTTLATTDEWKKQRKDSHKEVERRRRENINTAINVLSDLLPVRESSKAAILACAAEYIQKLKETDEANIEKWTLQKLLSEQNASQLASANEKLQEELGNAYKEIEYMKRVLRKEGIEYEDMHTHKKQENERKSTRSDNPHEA
Notes: whole 60-bp probe, lowest competitor level
Strand | fluorescence intensity [a.u.]
GCTGACCCTATAACGCGCGTGAAGTAACAGCGATCT | 77.9
AAATTACTAAGTTGACATGTGGGTGACGCCGTATGA | 98.8
AAATTACTAAGTTGCCTAGTGGGTGACGCCGTATGA | 50.2
AAAGCGGTAATTTGACCGGTGGGTGCAGATATCTAT | 57
CTTTCCCGATCTTTTCACGTGTGGTTAGCACATTTG | 605
CTTGCCATACCTTCACACGGGGTTCTTTGAGGCACT | 84.7
ACTGCAGTAATTCTCCACATGGGCCCAGCCACTGAG | 76.4
TGGCAACAGAGAAAGCACGCTTGTAGAACCAACCTT | 63.1
CTTCTGTAAATTTTTCACGTGTAATGACGCGCCCCG | 773
GATTTTGTTCTTTGTCATGTGATTTTAATCTGTCAA | 2290
CATACCCAACCTTGTCACAGCACTTAAGATATTTGT | 87.4
ACTGGAAACGAGCAACACATGTCCCACTTTGCCACA | 109
GCATTACGAGAGAAGTGCGTGATGGCTGGAAACTAG | 92.6
TTAGATGACTGTTAGCACGTAATGATTTGGCCATGA | 77.8
CATACCCAACCTTGCGACGTGGGTGAAGATATTTGT | 78
AAAACCCTAACAATACACATGATGCAACTGGAACGC | 173
CTTCTGTAAATTTGTCACTCAACTTGACGCGCCCCG | 74
CATCACCTTCCTTAGCACGGGTTCTTGCTGTCTGCT | 126

Study 2 — technique: protein binding microarray; molecule type: double-stranded DNA, one strand shown; medium: in vitro; tested at: not given; baseline: not given; direction: higher = stronger binding
Target: Histone acetyltransferase KAT6A, winged helix 2, GST fusion (KAT6A, Homo sapiens, UniProt Q92794, residues 85-181)
Notes: 8-mer, flanks averaged, mean of 2 arrays, mostly near background
Target sequence (chain): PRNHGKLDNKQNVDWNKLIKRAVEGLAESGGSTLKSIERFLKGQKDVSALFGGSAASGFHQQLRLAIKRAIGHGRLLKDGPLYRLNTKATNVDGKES
Strand | E-score
CACATACG | -0.217
CAACTCCA | -0.187
ATAACCGG | -0.18
ACGCAAGC | 0.125
CACGCGGG | 0.204
ATCACATA | 0.0396
GTGCAGAA | -0.0205
CCCGTGCA | -0.0205
ATTAGTCG | 0.0711
AGTACTGG | -0.115
AGGATGAA | -0.00541
ATCGCCAG | 0.106
CCCAGTTC | 0.103
ACGTCCTA | -0.208
AAGAACTC | 0.0913
CAGCGAAG | 0.0843
ATATCATC | -0.00581
ATAGCAGA | 0.0787
TCGCGCGA | 0.0502
ACTTGATG | -0.0734
CACTGATC | -0.0476
TCTTAGCA | 0.043
TGCTATAA | 0.0727

Study 3 — technique: universal PBM; molecule type: double-stranded DNA, one strand shown; medium: in vitro; tested at: 600 nM; direction: higher = stronger binding
Target: Sal-like protein 4, full length isoform A (SALL4, Homo sapiens, UniProt Q9UJQ4, residues 1-1053)
UniProt Q9UJQ4, sequence (whole entry, looked up): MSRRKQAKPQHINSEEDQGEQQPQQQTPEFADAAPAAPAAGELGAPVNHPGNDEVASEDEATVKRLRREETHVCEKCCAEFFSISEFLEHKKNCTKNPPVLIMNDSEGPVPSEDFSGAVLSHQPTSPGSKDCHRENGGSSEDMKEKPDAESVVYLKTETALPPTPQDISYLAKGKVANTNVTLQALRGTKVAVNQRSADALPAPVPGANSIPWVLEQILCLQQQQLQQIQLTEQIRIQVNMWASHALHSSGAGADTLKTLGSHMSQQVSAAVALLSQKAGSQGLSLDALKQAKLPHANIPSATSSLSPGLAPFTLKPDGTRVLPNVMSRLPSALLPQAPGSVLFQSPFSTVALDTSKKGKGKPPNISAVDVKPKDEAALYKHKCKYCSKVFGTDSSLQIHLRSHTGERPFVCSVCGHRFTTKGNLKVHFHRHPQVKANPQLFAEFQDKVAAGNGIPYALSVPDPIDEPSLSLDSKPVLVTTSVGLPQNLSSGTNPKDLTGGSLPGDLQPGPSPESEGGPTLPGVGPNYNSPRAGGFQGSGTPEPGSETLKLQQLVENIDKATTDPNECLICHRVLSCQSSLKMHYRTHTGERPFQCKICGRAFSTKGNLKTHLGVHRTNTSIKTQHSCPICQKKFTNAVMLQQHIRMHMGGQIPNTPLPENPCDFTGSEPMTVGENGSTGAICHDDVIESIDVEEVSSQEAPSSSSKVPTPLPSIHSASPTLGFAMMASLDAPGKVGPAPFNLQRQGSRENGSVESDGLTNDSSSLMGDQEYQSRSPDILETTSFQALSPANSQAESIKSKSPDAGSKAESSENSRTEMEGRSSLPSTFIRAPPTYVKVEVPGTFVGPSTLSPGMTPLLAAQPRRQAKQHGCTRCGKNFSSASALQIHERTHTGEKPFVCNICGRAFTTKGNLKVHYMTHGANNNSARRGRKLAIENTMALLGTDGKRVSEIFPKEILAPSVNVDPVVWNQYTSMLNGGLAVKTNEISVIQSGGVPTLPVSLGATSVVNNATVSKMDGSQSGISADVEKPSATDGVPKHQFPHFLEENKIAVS
Notes: 8-mer, flanks averaged, mean of replicates
Strand | E-score
AAAAAGCC | 0.0253
AGACTCGA | -0.0373
ACAGTCCA | -0.0551
AACCTAGT | 0.0063
ATGGTCAG | 0.106
AGCGTTCA | -0.124
GCTTTGCA | -0.201
GGCCTTAA | -0.0492
ATGCACCG | -0.154
CATCGATC | -0.0625
TTGCCAAA | 0.118
CACGCACA | 0.039
CTGTTTAC | 0.251
CGGGGACA | -0.274
ACAGTGGA | -0.0145
GGGTCGGA | -0.261
GACCATTA | 0.233
GATCGCAC | -0.0392
AGATAGCC | -0.204
AGTAATAA | 0.4
CCCCGAAC | -0.275
CCGTCCAG | -0.229
CCTGACAC | -0.0954
ACGGACAT | -0.0483

Study 4 — technique: RNA Bind-n-Seq; molecule type: RNA; medium: in vitro; tested at: 1 µM; notes: whole 134-nt RNA, ends assumed; added: 150 mM KCl; baseline: input library; direction: higher = stronger binding
Target: Ras GTPase-activating protein-binding protein 1, RRM domain (G3BP1, Homo sapiens, UniProt Q13283)
UniProt Q13283, sequence (whole entry, looked up): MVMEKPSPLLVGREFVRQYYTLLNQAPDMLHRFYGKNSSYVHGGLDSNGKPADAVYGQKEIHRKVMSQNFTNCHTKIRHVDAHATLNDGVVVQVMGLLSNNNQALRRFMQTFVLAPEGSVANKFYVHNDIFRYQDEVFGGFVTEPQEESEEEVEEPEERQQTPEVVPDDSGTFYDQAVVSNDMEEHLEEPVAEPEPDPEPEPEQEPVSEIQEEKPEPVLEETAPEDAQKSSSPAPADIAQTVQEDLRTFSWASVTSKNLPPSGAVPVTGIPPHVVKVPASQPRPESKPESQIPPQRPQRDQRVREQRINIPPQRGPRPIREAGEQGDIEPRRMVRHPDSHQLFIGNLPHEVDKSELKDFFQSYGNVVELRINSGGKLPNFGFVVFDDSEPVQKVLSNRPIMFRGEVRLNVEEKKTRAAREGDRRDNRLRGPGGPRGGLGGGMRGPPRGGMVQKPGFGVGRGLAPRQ
Constant ends, left off below: GGGAGUUCUACAGUCCGACGAUC … UGGAAUUCUCGGGUGUCAAGG
Strand | log2 enrichment
UGUGCUACACAUCGUAUGUACCGAAUCGGGGAAAAAAAGGGGUUUUUUUGGGGUUUUUGGGGAAAGUAUUAUGUUACGCCGUUCGGAUCU | 1.12
CAAUGGGAAUGGACCAAAGAGUUUCAGGGAAACUCCAGUAUAUUCCAGAGUCAGAUCUAAGCUCCAGGCACGCCUGAAGAUGUGUUGCUA | -0.0105
CAAGUCCUGUGCUACACAUCGUAUGUACCGAAUCGGGAGGGAAAGGGUUUUUGGGAAAGUAUUAUGUUACGCCGUUCGGAUCUGCACUUC | 0.766
UGUGCUACACAUCGUAUGUACCGAAUCGGGGAAAAAAAGGAAAAAAAGGGGAAAAAAAGGGGAAAGUAUUAUGUUACGCCGUUCGGAUCU | 0.111
CCUCAAGUCCUGUGCUACACAUCGUAUGUACCGAAUCGGAAAGGAAAGGUGGAAAGUAUUAUGUUACGCCGUUCGGAUCUGCACUUCCAG | -0.131
GCAGGAAGUAAAAACAAAUGGAAAUGCUUCGGAUAGUGGCAGGGGAGGGGGUUGCUAAGGAAAGGGUGGGAUGGGAGUGGGUAAAGAGUU | 1.12
CACAGACAACACGCACCCACACAGACACAGAGGGAAGGGGUUGGAAAGGGGACAGGGUGCACAGCAGGGCGGGGUAGGACCCCAGCCCCU | 0.0308
UCCUGUGCUACACAUCGUAUGUACCGAAUCGGGGUUUUUGGGGUUUUUGGGUUUUUGGGAAAGUAUUAUGUUACGCCGUUCGGAUCUGCA | -0.0269
CCUCAAGUCCUGUGCUACACAUCGUAUGUACCGAAUCGGUGGAAAAAGGUGGAAAGUAUUAUGUUACGCCGUUCGGAUCUGCACUUCCAG | -0.234
CCUCAAGUCCUGUGCUACACAUCGUAUGUACCGAAUCGGGGCGGGCGGGCGGAAAGUAUUAUGUUACGCCGUUCGGAUCUGCACUUCCAG | 0.271
CUGUGCUACACAUCGUAUGUACCGAAUCGGGGCCCCCCCGGGCCCCCCCGGGGCCCCCCCGGAAAGUAUUAUGUUACGCCGUUCGGAUCU | -0.643
CAAGUCCUGUGCUACACAUCGUAUGUACCGAAUCGGGGCCCCGGCCCCGGCCCCGGAAAGUAUUAUGUUACGCCGUUCGGAUCUGCACUU | -0.756
UCCUGUGCUACACAUCGUAUGUACCGAAUCGGGGCCCCCCGGGCCCCCCGGCCCCCCGGGAAAGUAUUAUGUUACGCCGUUCGGAUCUGC | -0.3
UAACUUUAGAGGAGGAUCUGAUGGAUAUGGCAGUGGACGUGGAUUUGGGGAUGGCUAUAAUGGGUAUAGAGGAGGACCUGGAGGUGGCAA | -0.323

Study 5 — technique: protein-binding microarray; molecule type: double-stranded DNA, one strand shown; medium: in vitro; tested at: 250 nM; notes: 60-bp whole probe; added: salmon DNA 0.4 mg/ml; baseline: random background probes; direction: higher = stronger binding; constant ends, left off below: GCCTAGCAC … GTCTTGATTCGCTTGACGCTGCTG
Target: Interferon regulatory factor 5, full length, phosphomimetic (IRF5, Homo sapiens, UniProt Q13568-2, residues 1-514, K96S/S451D/S453D/S456D/S462D)
Strand | log fluorescence [z-score]
GACGGTTTCGGGACTTGGGACGTGCTA | 4.21
GACGGTTCCCTTTTCCTGAAGTGCTAG | 0.291
GACGGTCTCCTACTGTTGACGTGCTAG | 0.112
GACGGTATGCTTATCCTGACGTGCTAG | -0.412
TCACTCTTCTTTTTTTTACTGTGCTAG | 1.38
ATCCATCTCAAGTAGCCTAGCGTGCTA | -0.0165
TTAGGACTGGGGTATCGGTAAGTGCTA | 1.22
TTAGATTTCGGGGTTCGATTAGTGCTA | 3.29
TTCCCTCCCTAATTCTGATTGTGCTAG | 0.321
TTAGGTCTCGGTCTCGTTTAGTGCTAG | 0.646
TTAGGTTTCCTTTCCCTTTGGTGCTAG | 2.05
TTAGGTATCGGTATCGGTTGGTGCTAG | 8.69
TTAGGTTTCGGGAATCGGTTAGTGCTA | 7.33
ACCGCATTCGAATTCAGAATGTGCTAG | 0.388
GACGGTCTCAGACTGGAGACGTGCTAG | -0.541
TTAGGACCGCTTATCCTTTAGTGCTAG | -0.197
TTAGGTTTCTTACTGCTTTAGTGCTAG | 0.936
TTAGAACTGGGGTATCGAATAGTGCTA | 0.541
TTAGGGCTCGGTTTCGGTTAGTGCTAG | 8.06
GACGGTTTCGGGTTACGGGACGTGCTA | 7.8
GACGGTCTCGGTATTGGGACGTGCTAG | 0.146
TCATCTTTGCAGATAAAACTGTGCTAG | 0.624

Study 6 — technique: protein-binding microarray; molecule type: double-stranded DNA, one strand shown; medium: in vitro; tested at: not given; direction: higher = stronger binding
Target: Hepatocyte nuclear factor 3-beta, forkhead domain (FOXA2, Homo sapiens, UniProt Q9Y261, residues 142-269)
Notes: k-mer, scored over probes, only values ≥0.25
Residues (chain): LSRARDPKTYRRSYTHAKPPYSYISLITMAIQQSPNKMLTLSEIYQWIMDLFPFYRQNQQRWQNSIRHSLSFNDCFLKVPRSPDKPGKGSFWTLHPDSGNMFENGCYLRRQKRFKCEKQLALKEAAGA
Strand | E-score
ATACAACG | 0.296
ATCAATGA | 0.266
GTGATTAA | 0.263
ATACCATC | 0.262
ATAGGATA | 0.291
CATATAGA | 0.355
CAACTTTA | 0.269
CAATACAC | 0.326
CACAACTA | 0.278
CTTTGTTA | 0.304
GTAAACAA | 0.453
ATGATGTA | 0.312
ATTAAAGA | 0.262
ATTATATA | 0.348
ATGTATGA | 0.289
GGTAATTA | 0.266
TACGCTAA | 0.308
ACTATTTA | 0.293
ACGTAAAG | 0.299
CAATGTAA | 0.268
AAGTAATC | 0.254

For quick reference, copied from above (study 1):
Strand | fluorescence intensity [a.u.]
ACTGCAGTAATTCTCCACATGGGCCCAGCCACTGAG | 76.4
CATCACCTTCCTTAGCACGGGTTCTTGCTGTCTGCT | 126
GCATTACGAGAGAAGTGCGTGATGGCTGGAAACTAG | 92.6
CTTCTGTAAATTTTTCACGTGTAATGACGCGCCCCG | 773
AAAACCCTAACAATACACATGATGCAACTGGAACGC | 173
AAAGCGGTAATTTGACCGGTGGGTGCAGATATCTAT | 57
GCTGACCCTATAACGCGCGTGAAGTAACAGCGATCT | 77.9
AAATTACTAAGTTGCCTAGTGGGTGACGCCGTATGA | 50.2
CTTCTGTAAATTTGTCACTCAACTTGACGCGCCCCG | 74
